Results from different studies.
Numbered parts are unrelated; each lists some results of a single study.

Sample 1
Target: Interferon regulatory factor 5, full length, phosphomimetic (IRF5, Homo sapiens, UniProt Q13568-2, residues 1-514, K96S/S451D/S453D/S456D/S462D)
Method: protein-binding microarray
Molecule type: double-stranded DNA, one strand shown
Medium: in vitro
Tested at: 250 nM
Setting: 60-bp whole probe
Added: salmon DNA 0.4 mg/ml
Baseline: random background probes
Reading: higher = stronger binding
All sequences stand within: GCCTAGCAC … GTCTTGATTCGCTTGACGCTGCTG
| Sequence | log fluorescence [z-score] |
| --- | --- |
| GACGGACCGGACTTTCGGGACGTGCTA | 4.71 |
| TTAGGTTGCGGTTCCGGTTAGTGCTAG | 1.65 |
| GACGAACTGAATATCGAGACGTGCTAG | 1.03 |
| TTTGCTTTCCTGATGGTCTTGTGCTAG | 0.808 |
| TTAGAACTGGGGTATCGATAAGTGCTA | 2.45 |
| ACCCCAAAGAGGGGCAGTGTGTGCTAG | -0.684 |
| GACGATTGCAGACTGGAGACGTGCTAG | -0.23 |
| GACGGTTTCCTTATCCTGTCGTGCTAG | 1.13 |
| AAAATGATTGGTTGAACATGGTGCTAG | 0.478 |
| GACGATTCCCGTTTCGAGACGTGCTAG | 2.37 |
| TCATTTTTTTTTTTTTGACTGTGCTAG | 0.897 |
| TAAGGTATCCTTTTCCTTTAGTGCTAG | 0.877 |
| TTAGGTTTCCTTTCCCATTAGTGCTAG | 1.63 |
| TATTATATCTGTGTTATTAAGTGCTAG | 1.42 |
| GACGGTCTCCAACTGCTGACGTGCTAG | -0.587 |
| GACGGGCTGCTTTTCCTGACGTGCTAG | -0.424 |
| TCAATTCTCTTCTTGCAACTGTGCTAG | 0.807 |

Sample 2
Target: Centromere-binding protein 1, full length, His-tagged (CBF1, Saccharomyces cerevisiae, UniProt P17106, residues 1-351)
Chain of UniProt P17106 (whole entry, looked up): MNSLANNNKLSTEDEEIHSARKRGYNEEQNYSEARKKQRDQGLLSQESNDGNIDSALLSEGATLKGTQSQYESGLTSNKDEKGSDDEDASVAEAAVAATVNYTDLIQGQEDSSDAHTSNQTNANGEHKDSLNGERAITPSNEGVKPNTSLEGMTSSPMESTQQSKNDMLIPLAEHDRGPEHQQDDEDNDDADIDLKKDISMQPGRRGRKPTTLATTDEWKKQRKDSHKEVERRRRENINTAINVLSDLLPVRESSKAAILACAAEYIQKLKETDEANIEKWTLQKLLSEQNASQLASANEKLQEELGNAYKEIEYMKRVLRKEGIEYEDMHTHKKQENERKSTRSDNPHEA
Method: competition protein-binding microarray
Molecule type: double-stranded DNA, one strand shown
Medium: in vitro
Tested at: 2 µM
Setting: whole 60-bp probe, lowest competitor level
Added: Pho4 competitor, 0.05 µM
Reading: higher = stronger binding
All sequences stand within: … GTCTTGATTCGCTTGACGCTGCTG
| Sequence | fluorescence intensity |
| --- | --- |
| TTCCAAATCTTTCCGAAAAAAATTCTCTAGCGGATT | 64.4 a.u. |
| AAAGCGGTAATTTGGGAGGTGGGTGCAGATATCTAT | 75.8 a.u. |
| TACCTAACCCATTTGCACGTGTCGGTAATAAGAAAA | 2350 a.u. |
| GTCTTGTCTCATTGTTCCGTGGGTGTCCCCACTTCA | 84.9 a.u. |
| TGCCATTGATCCAGTCTCGTGACTCGGACAGAACTG | 1320 a.u. |
| CTGCATCGGCCGGCCCATGTGAAAAGGAAGTATTTA | 88.2 a.u. |
| GTCTTGTCTCATTCCCACGTGTTTTTCCCCACTTCA | 773 a.u. |
| AGTGCGAACTACTGTTACGTGTGAATTGTAAAGGCG | 81.2 a.u. |
| TGCGCAACAACTTGTCAGGTGGGTGTATGTCTAGAA | 171 a.u. |
| CAGAAGGCAGACCATCACGATTGATAAAGATTAAGC | 76.8 a.u. |
| GTCTTGTCTCATTTTCACGTGACATTCCCCACTTCA | 3890 a.u. |
| AGGCATACCCTTGTTCATGTGGGGGCATTCAATGGG | 82.3 a.u. |
| GAGGTTTACTCCAGTTTCGTGGGACTGTGCATTTTC | 58.4 a.u. |
| CTACAATTTCCACTCCACGTGAATTTTTTCTCGGAA | 1040 a.u. |
| ACCTACGAGTCCGGCCACGTGCGATCCGTAGCCATT | 682 a.u. |
| AAAGCGGTAATTTTTCACGTGGAGTCAAATATCTAT | 897 a.u. |
| CGTCCTAGTGATTGTCAGGTGGGTGCCATGAGGAAG | 166 a.u. |
| CTTCTGTAAATTTGATAAGTGGGTGGACGCGCCCCG | 76.6 a.u. |
| ATTGTCATCATCATCAGCGTGAGAAAGTCGAAACAA | 88.1 a.u. |
| AAATTACTAAGTTGAAGCGTGGGTGACGCCGTATGA | 80.4 a.u. |
| AATCGTTAACACCGTCACCTGTCATTGTGCAGAACT | 130 a.u. |
| ACCAGTAAACTCTGTCATGTGACGGTGGGTGTTGGA | 1440 a.u. |
| CAATTAGAAAAACAGCACGTGGAGGTATATAGAGAG | 1480 a.u. |

Sample 3
Target: RING finger protein unkempt homolog, zinc fingers 1-6, GST-SBP tag (UNK, Homo sapiens, UniProt Q9C0B0, residues 30-357)
Chain of UniProt Q9C0B0 (30-357, looked up): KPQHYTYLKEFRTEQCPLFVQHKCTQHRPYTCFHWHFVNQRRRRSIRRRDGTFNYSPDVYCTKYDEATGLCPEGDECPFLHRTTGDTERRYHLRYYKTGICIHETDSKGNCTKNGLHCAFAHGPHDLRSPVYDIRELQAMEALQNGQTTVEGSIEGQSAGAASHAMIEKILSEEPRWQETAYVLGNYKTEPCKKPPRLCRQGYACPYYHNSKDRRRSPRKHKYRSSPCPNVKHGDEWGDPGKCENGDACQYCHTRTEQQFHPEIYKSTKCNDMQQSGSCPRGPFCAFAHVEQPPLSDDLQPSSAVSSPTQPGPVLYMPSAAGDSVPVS
Method: RNA Bind-n-Seq
Molecule type: RNA
Medium: in vitro
Tested at: not given
Setting: RNA with constant flanks, human and mouse sites, ends assumed
Baseline: input RNA pool
Reading: higher = stronger binding
All sequences stand within: GGGAGUUCUACAGUCCGACGAUC … CAACAGAGGAUUGAGCAUCA
| Sequence | bound/input enrichment |
| --- | --- |
| GUUGGAAUGGGGAGGAGGAAGCUUUUUUUUUUUUAAUUUUUUAAAAAAUCAUAUCUGCUAAUUUAAGAGUGAGAUUUGCUUUAUGGAAGUCAACUCAAUAAAAACUGCAUUCGAGUUGCA | 1.1 ratio |
| ACCUCAAACCAGAAAUACCUCAGAAUUUUCUACUUAUGUAAGGUUUAUUAUAUAUUUUGUUAGUUGUGUUGUCUUGUAGUAAGUAUAUUUUAAUGUAAGUUGGCUUUUGUGACAAGGAAG | 10.1 ratio |
| CAGAAGCUGUUGAAGUCUUGUUGAAUUAUGCCUACACUGCUCAGUUGAAAGCAGAUAAGGAAUUGGUAAAAGAUGUUUAUUCUGCAGCAAAAAAGCUGAAGAUGGAUCGAGUAAAGCAGG | 0.136 ratio |
| GUGGAUAGCUUUGAUGACAUGAAUCUCUCAGAGUCCCUCCUCCGUGGUAUUUAUGCCUAUGGUUUUGAGAAGCCCUCUGCCAUCCAGCAGCGAGCUAUUCUUCCUUGUAUCAAGGGUUAU | 0.161 ratio |
| GGACUUGAACAACUUACAAAGUCUCCGGUGGAAUUUGUAGAAUACAACAAGAUGCAACUUAGCAGGAUAUAUCCCAAGGGAACACGUGUGGAUUCAUCCAACUACAUGCCUCAACUCUUC | 0.216 ratio |
| GACUGUUCAAGCAAAAAAGGUAACUAACUGCUUCAUCUCCUUUUGCGCUUAUUUGGAAAUUUUAGUUAUAGUGUUUAACUGGCAUGGAUUAAUAGAGUUGGAGUUUUAUUUUUAAGAAAA | 6.23 ratio |
| AAUCCUCAACUUGUUCUAGCUUGUGAUCCCUCAAAGUUGGGUCAUACGUUAGUGCUAGAUACUAGAAAUUUUCACUUUUCCACUGAUCAGAGAGACAGACAUUAAAAACAAAAAUAGAAG | 10.6 ratio |
| GUAUUUCUUAAACCUCAACUCUAGGUCUCCUGAAUACCUCUCAUUAUUUAUUGAUGAUAAACUGAAAAAGGGAGUCAAAGGGCUAACAGAACAAGAAGUAGAAACAAUAUUGGAUAAGGC | 0.8 ratio |
| UGCCAUUUGGUUCCAAGUAGGUGCAGGACAAAAUGGAACUGGGUUCUACAUGCUGGGUUGACUAGGUUACACAUUUUAGCCUAUGAAGUUAGUGGCCUAUAAAACUUAAUCCUUAACGUU | 0.194 ratio |
| CCACAUUAUGUCAACGAUGGAAUUAAAAAUUUUACUCUUAAGUUUCUCCAGACAUUUUUUUUUUCUUUCCAUUGCUAAAAAAGCAAUCGAAGUUCCCCAUAUUCCCUGGCCCUCAGUGGU | 0.349 ratio |
| UUAAUCAUAGAUGGCUCCACAUUGUCACUCAUACUAAAUUCUAGUCAAGACUCUAGUUCAAACAAUUACAAAAGCAUUUUCCUACAAAUAUGUAUGAAGUGUACUGCAGUGCUCUGCUGU | 1.19 ratio |

Sample 4
Target: Histone acetyltransferase KAT6A, both winged helices, GST fusion (KAT6A, Homo sapiens, UniProt Q92794, residues 1-181)
Method: protein binding microarray
Molecule type: double-stranded DNA, one strand shown
Medium: in vitro
Tested at: not given
Setting: 8-mer, flanks averaged, mean of 2 arrays, mostly near background
Baseline: not given
Reading: higher = stronger binding
Target sequence (chain): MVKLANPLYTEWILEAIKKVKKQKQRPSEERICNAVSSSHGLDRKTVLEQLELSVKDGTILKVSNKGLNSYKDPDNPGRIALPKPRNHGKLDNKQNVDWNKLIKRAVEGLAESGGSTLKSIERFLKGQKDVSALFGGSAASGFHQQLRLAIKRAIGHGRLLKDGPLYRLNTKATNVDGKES
| Sequence | E-score |
| --- | --- |
| TACATCCA | -0.204 |
| GGGAGCTA | -0.0846 |
| AAGTTACG | 0.0141 |
| CCTGCCAC | -0.145 |
| CCATAAGA | -0.103 |
| CCCGAAAA | 0.0433 |
| AGTGCTGA | -0.142 |
| AAGTGAGT | -0.114 |
| GGGACGCA | 0.0269 |
| GGTCCCCA | -0.0565 |
| GCCACGCC | 0.0432 |
| CACAGCTA | -0.222 |
| CCATGTAC | -0.0842 |
| GAGAAAAA | -0.0111 |
| AAAGATTC | -0.0744 |
| CAGCGTTA | 0.0697 |
| AGATAGCA | -0.171 |
| CCAGGGAA | -0.0899 |
| ATTTTGAA | -0.0422 |
| AACGTGAT | 0.0138 |
| GAGTCTGA | -0.129 |
| AACGCCTC | -0.0687 |
| GTTGGTAA | -0.0388 |
| ATGGACAG | -0.121 |
| ATCTTCAG | -0.0542 |

Sample 5
Target: Sal-like protein 4, full length isoform A (SALL4, Homo sapiens, UniProt Q9UJQ4, residues 1-1053)
Chain of UniProt Q9UJQ4 (whole entry, looked up): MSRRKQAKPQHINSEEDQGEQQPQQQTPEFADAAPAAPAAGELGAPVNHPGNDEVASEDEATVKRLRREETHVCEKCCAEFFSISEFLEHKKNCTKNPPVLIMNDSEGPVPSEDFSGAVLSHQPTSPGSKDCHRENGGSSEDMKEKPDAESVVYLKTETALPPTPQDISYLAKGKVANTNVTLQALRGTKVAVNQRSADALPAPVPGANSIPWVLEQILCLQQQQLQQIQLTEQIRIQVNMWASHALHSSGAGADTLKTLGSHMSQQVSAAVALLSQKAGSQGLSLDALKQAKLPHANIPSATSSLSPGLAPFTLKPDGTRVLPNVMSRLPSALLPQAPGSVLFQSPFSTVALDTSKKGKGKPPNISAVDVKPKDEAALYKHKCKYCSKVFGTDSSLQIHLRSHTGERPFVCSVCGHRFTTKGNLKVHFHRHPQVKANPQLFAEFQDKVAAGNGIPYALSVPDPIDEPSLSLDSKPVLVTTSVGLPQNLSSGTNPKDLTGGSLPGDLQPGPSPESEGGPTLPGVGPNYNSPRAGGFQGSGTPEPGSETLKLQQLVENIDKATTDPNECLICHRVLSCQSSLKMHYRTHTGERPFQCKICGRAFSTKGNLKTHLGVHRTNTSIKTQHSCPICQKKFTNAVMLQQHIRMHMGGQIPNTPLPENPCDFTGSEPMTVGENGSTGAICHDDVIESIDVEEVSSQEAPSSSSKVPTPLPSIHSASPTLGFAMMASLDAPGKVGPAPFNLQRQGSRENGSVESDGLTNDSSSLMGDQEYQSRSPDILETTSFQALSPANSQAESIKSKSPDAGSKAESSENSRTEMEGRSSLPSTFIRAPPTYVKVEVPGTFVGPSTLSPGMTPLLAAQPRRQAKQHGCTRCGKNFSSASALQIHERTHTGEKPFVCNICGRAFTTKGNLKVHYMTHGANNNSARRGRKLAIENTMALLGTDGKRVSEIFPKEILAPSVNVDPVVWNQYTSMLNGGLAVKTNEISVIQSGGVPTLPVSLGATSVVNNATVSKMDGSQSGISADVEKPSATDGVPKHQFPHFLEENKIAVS
Method: universal PBM
Molecule type: double-stranded DNA, one strand shown
Medium: in vitro
Tested at: 600 nM
Setting: 8-mer, flanks averaged, mean of replicates
Reading: higher = stronger binding
| Sequence | E-score |
| --- | --- |
| AATAGTGC | 0.0636 |
| AGGTATAG | 0.123 |
| CCCCGCAC | -0.356 |
| ATACGAAA | 0.18 |
| CCTAGCCC | -0.3 |
| CGATTACC | -0.155 |
| GCAATGCA | -0.0789 |
| GGTGCGAA | -0.14 |
| GCATCGAC | -0.122 |
| AAGTGCAT | 0.164 |
| CTGCACTC | -0.17 |
| CATATGAG | 0.14 |
| ATGCGCAC | -0.0405 |
| GCGTTGCA | -0.217 |
| AAGTAGAA | 0.216 |
| CAGAGACG | -0.143 |
| CGTATTTA | 0.262 |
| AATGGCAT | 0.143 |
| CGAATGCC | -0.169 |
| CGCAACAA | 0.052 |
| GGCAGCCC | -0.465 |
| ACTGTATG | 0.18 |

Excerpt of the above (sample 2):
| Sequence | fluorescence intensity |
| --- | --- |
| CTACAATTTCCACTCCACGTGAATTTTTTCTCGGAA | 1040 a.u. |
| AAATTACTAAGTTGAAGCGTGGGTGACGCCGTATGA | 80.4 a.u. |
| TGCCATTGATCCAGTCTCGTGACTCGGACAGAACTG | 1320 a.u. |
| AATCGTTAACACCGTCACCTGTCATTGTGCAGAACT | 130 a.u. |
| TTCCAAATCTTTCCGAAAAAAATTCTCTAGCGGATT | 64.4 a.u. |
| ACCAGTAAACTCTGTCATGTGACGGTGGGTGTTGGA | 1440 a.u. |
| CGTCCTAGTGATTGTCAGGTGGGTGCCATGAGGAAG | 166 a.u. |
| ATTGTCATCATCATCAGCGTGAGAAAGTCGAAACAA | 88.1 a.u. |
